Measurements of several laboratories.
Every numbered part comes from another study and shows a few of its results, in no order. Values joined by “and” are separate records of one study, mostly repeats; a detail may differ. Positions count from the first letter of the parent shown.
UniProt P35626, sequence (whole entry, looked up): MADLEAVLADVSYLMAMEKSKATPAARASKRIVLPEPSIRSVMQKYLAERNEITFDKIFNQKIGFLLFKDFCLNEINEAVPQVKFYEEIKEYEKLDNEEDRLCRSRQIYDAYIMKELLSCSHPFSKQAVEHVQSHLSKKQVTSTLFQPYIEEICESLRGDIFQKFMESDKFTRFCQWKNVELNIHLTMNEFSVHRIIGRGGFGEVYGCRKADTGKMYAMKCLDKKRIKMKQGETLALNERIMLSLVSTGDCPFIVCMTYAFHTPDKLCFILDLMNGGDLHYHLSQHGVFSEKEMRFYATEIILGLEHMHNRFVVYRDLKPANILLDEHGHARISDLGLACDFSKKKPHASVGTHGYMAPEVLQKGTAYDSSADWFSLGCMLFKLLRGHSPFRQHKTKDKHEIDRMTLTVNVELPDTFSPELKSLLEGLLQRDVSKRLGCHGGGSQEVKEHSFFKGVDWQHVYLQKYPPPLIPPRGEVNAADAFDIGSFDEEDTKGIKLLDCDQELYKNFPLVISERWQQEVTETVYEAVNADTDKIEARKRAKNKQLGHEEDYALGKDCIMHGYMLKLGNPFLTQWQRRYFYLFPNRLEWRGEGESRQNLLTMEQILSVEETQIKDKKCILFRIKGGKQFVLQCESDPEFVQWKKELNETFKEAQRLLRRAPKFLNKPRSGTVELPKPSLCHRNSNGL

Sample 1 — target: CCND3, cyclin fold, Cln2 fusion (human); method: yeast growth competition, sequencing; medium: yeast; setting: weak parent motif; baseline: not given; direction: higher = stronger binding; quantity: normalised enrichment score; starting sequence: viral docking peptide; CKVKRKLFGSENI
R5K F8L: -0.125
R5A L7A: 0.169
F8L: -0.0479
N12A: 0.12
L7A: 0.159
S10A: 0.185
K6A: 0.111
K2A: 0.194

Sample 2 — read-out: peptide-MHC binding; form: peptide; tested at: concentration not given; quantity: binding
Target: HLA class I histocompatibility antigen, A alpha chain, allele A*80:01 (Homo sapiens, UniProt P04439)
RRAYSGKQY: inactive
KLLARFLFE: inactive
TVAPPAPVY: inactive
LMQCWQLLA: inactive
DRLASTVIY: inactive
SVFALLPPQ: inactive
YQRRRRFAI: inactive
TVFCFFNYI: inactive

Other studies, line by line
CCOc1ccc(Nc2c3c(nc4ccccc24)CCC3)cc1  inhibition (Leishmania donovani; parasite growth; DD8 amphotericin B-resistant, intracellular amastigotes; 0.004 µM): 1% and 5% and 2%
CC(C)(C)c1cc(C=C(C#N)C#N)cc(Br)c1O  remaining activity (G protein-coupled receptor kinase 3 (GRK3, Homo sapiens, UniProt P35626); enzyme activity, inhibitor; 0.5 µM): 98%

Excerpt of the above (sample 1):
R5K F8L: -0.125
N12A: 0.12
F8L: -0.0479
